Results of several laboratories.
Lines come from different studies, so protocols differ.

COc1c(C)cnc(Cn2cc(C#CCCOP(=O)(O)O)c3c(Cl)nc(N)nc32)c1C  patients with adverse event (item: nausea; human, advanced solid tumours; concentration not given, at least possibly drug-related): 44%
CCN(CCO)CCCC(C)Nc1ccnc2cc(Cl)ccc12 (stereo not drawn)  patients with adverse event (human, newly diagnosed glioblastoma; oral, 400 mg/dose, dry skin grade 1, with RT and TMZ): 14%
C[C@@H]1OC(=O)NN=C1c1ccc(-c2ccc(F)cc2)c(C(F)(F)F)c1  patients with adverse event (phase I trial, item: Presyncope worst grade 2; human patients; 20 mg loading then 1 mg daily): 0%
COc1ccc(-c2c(-c3ccc(C#N)c(F)c3)nc(N3CCC(N)CC3)n(C)c2=O)cc1F  patients with serious TEAE (item: decreased appetite; human patients; oral, 60 mg, dose expansion): 0%
O=C1Nc2cc3[nH]nc(-c4ccncc4)c3cc2CN1Cc1ccccc1  patients with nausea (CTCAE v4.03; human, relapsed or refractory advanced solid tumours; intravenous, 9.6 mg/kg, pooled schedules): 22%
C=CC(=O)Nc1cc(Nc2nccc(Nc3cc(Cl)c(F)cc3C(C)(C)O)n2)c(OC)cc1N1CC[C@@H](N(C)C)C1  patients with rash (human patients; oral, 100 mg, treatment-emergent adverse events): 22.2%
C=CCNc1c(O)cc2c(O)c1C[C@@H](C)C[C@H](OC)[C@H](O)[C@@H](C)/C=C(\C)[C@H](OC(N)=O)[C@@H](OC)/C=C\C=C(/C)C(=O)N2  patients with serious adverse events (human unresectable metastatic GIST or sarcoma; intravenous, dose not given): 37%
COc1ncnn2ccc(-c3cnc4nc(C)n(Cc5nnc([C@@H](C)F)o5)c4c3)c12  patients with nail discoloration (human; oral, dose not given, grade 5): 0%
CN[C@@H](C)C(=O)N[C@H]1CN(S(=O)(=O)c2cccc(S(=O)(=O)N3CC[C@H]4CC[C@@H](C(=O)NC(c5ccccc5)c5ccccc5)N4C(=O)[C@@H](NC(=O)[C@H](C)NC)C3)c2)CC[C@H]2CC[C@@H](C(=O)NC(c3ccccc3)c3ccccc3)N2C1=O  patients with any TRAE (human, advanced solid tumours; intravenous, 12 mg weekly, CTCAE version 4.0): 0%
O=C(c1ccc(F)c(F)c1Nc1ccc(I)cc1F)N1CC(O)([C@@H]2CCCCN2)C1  patients with treatment-related SAE (human patients; oral, 1 mg/kg, dose expansion cohort): 17%
CCN(Cc1nc2c(N)nc3cc(-c4cc[nH]n4)ccc3c2[nH]1)C(C)=O  patients with treatment-related adverse event (human patients; intratumoral, dose not given): 91.7%
CCNCCCNC/C=C\CNCCCNCC  patients with dizziness (human, advanced solid tumours; intravenous, dose not given; relative to: patients): ~10%
CN(C)C(=O)c1cc2cnc(Nc3ccc(N4CCNCC4)cn3)nc2n1C1CCCC1  patients with adverse event (item: Neutropenia, AESI; human, HR+/HER2− advanced breast cancer; oral, dose not given, grade 4, CTCAE v4.03): 11.6%
Cn1cncc1-c1c(F)cncc1NC(=O)c1c(N)nn2cc(F)cnc12  patients grade ≥3 Neutrophil count decrease (human patients; oral, up to 40 mg once daily): 0%
CCN1[C@@H](C(=O)NC23CCC(C(=O)O)(CC2)CC3)[C@H](c2cccc(Cl)c2F)[C@]2(C(=O)Nc3cc(Cl)ccc32)C12CCCCC2  patients with adverse event (item: any-grade treatment-related elevated ALT; human, advanced solid tumours; oral, dose not given, phase I, all patients): 4.8%
Cn1ncc(-c2nc(N[C@H]3CC[C@H](N)CC3)ncc2Cl)c1CC1CC1  patients with adverse events (item: treatment-related Hypoxia grade 3 or higher; human patients phase I; dose not given): 3.2%
Cn1nc(NS(C)(=O)=O)c2c(Cl)ccc(-n3c([C@H](Cc4cc(F)cc(F)c4)NC(=O)Cn4nc(C(F)F)c5c4C(F)(F)[C@@H]4C[C@H]54)nc4nc(OCCC(F)(F)F)ccc4c3=O)c21  patients with laboratory abnormality (item: LDL cholesterol grade 1 increase; human; 300 mg once daily, powder in bottle): 25%
NC(=O)[C@H]1CCN(c2ncnc(N)c2F)C[C@@H]1N1CCC[C@@H](Nc2cc(Cl)cc(C(F)(F)F)c2)C1=O  patients with increased bilirubin (human patients, blood; oral, dose not given, grade ≥3): 8%
Cc1cn([C@H]2O[C@@H](CO[P@@](=O)(N[C@@H](C)C(=O)OC(C)C)Oc3ccccc3)[C@H](O)[C@H]2F)c(=O)[nH]c1=O  patients with decreased platelets (item: grade 1/2; human; 25 mg): 0%
CCS(=O)(=O)Nc1ccc(Oc2ccc(F)cc2F)c(-c2cn(C)c(=O)c3[nH]ccc23)c1  patients with serious adverse event (item: Dehydration; human, relapsed/refractory AML; oral, dose not given, trial, added: alone or with venetoclax): 5%
C[C@]1(O)C[C@@](N)(c2ccc(-c3nc4n(c3-c3ccccc3)COc3ccncc3-4)cc2)C1  patients with Pruritus TEAE (human, advanced or metastatic solid tumours; 24 mg intermittent, phase I dose escalation): 50%

For quick reference, copied from above:
CCN(CCO)CCCC(C)Nc1ccnc2cc(Cl)ccc12 (stereo not drawn)  patients with adverse event (human, newly diagnosed glioblastoma; oral, 400 mg/dose, dry skin grade 1, with RT and TMZ): 14%
